# Measured values gathered from unrelated publications.
# A part holds a random share of what one study measured. Substitutions count along the parent as printed.
# Chain of UniProt Q9Y243 (whole entry, looked up): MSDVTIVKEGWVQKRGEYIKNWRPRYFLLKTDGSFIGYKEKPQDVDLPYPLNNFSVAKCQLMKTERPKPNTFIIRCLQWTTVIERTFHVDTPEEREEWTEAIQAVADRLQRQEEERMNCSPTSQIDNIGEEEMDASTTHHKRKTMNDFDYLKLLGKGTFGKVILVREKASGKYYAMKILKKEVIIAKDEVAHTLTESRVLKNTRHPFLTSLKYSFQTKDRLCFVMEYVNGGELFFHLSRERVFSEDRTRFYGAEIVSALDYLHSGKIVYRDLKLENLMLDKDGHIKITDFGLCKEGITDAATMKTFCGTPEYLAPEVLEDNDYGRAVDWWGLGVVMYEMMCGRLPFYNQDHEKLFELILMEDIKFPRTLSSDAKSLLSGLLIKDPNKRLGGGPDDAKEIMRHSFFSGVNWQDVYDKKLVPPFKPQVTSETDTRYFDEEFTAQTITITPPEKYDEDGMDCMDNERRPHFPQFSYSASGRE

# Block 1 — technique: protein-binding microarray; form: double-stranded DNA, one strand shown; medium: in vitro; tested at: 0.8 µM; notes: whole 60-bp probe, no competitor; direction: higher = stronger binding; all sequences stand within: … GTCTTGATTCGCTTGACGCTGCTG
# Target: Centromere-binding protein 1, full length, N-terminal tag (CBF1, Saccharomyces cerevisiae, UniProt P17106, residues 1-351)
# Chain of UniProt P17106 (whole entry, looked up): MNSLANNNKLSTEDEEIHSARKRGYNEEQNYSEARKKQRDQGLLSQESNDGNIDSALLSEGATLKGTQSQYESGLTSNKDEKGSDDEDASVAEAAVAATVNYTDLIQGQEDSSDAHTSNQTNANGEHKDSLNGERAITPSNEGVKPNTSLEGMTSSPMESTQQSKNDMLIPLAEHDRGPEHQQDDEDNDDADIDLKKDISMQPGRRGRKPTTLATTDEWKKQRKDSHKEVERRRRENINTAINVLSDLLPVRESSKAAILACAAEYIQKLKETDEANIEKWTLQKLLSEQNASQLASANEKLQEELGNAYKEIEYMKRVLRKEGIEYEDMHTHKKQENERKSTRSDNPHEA
Sequence,fluorescence intensity
CTACGTGTGCGTGCGCACGTCCCACACAGACAATTC,752 a.u.
GAACTTAGTATACTTCATCAGATTTATGATAAATAG,533 a.u.
TGTACGAAGCTATTGCGCGTGCATATAGTAGTTAGG,661 a.u.
CCTAACTACTATAGTCAGGTGTAATAGCTTCGTACA,845 a.u.
GAACGGGTAATAGTACACGGGATGAAGAGACTTTAG,662 a.u.
CTATGCTTGAACCACCACCTGTATTGCTGGTATTTC,475 a.u.
CTAATATTAACTTTACACATGCATTGCCTATCATTC,607 a.u.
GAAATAACAAAACAGGTGATAACCGTGATCCTGTAG,1100 a.u.

# Block 2 — target: CCNA1, cyclin fold, Cln2 fusion (human); technique: yeast growth competition, sequencing; medium: yeast; notes: weak parent motif; relative to: not given; direction: higher = stronger binding
# Starting sequence: E2F1 docking peptide (human); PPVKRRLDLETDH; partner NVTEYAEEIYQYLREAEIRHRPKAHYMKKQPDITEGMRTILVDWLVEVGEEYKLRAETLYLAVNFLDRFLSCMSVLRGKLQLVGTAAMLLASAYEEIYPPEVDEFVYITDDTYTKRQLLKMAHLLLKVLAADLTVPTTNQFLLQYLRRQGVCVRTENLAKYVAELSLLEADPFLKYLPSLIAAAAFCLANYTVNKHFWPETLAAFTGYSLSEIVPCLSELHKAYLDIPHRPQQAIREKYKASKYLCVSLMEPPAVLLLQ
Change,normalised enrichment score
R6Y,0.389
L7M,0.451
K4P,0.219
K4G,0.239
R5M,0.16
P2R,0.365
D12V,0.609
P1C,0.725

# Block 3 — technique: RNA Bind-n-Seq; form: RNA; medium: in vitro; tested at: not given; relative to: input RNA pool; direction: higher = stronger binding
# Target: RING finger protein unkempt homolog, zinc fingers 1-6, GST-SBP tag (UNK, Homo sapiens, UniProt Q9C0B0, residues 30-357)
# Notes: RNA with constant flanks, human and mouse sites, ends assumed
# All sequences stand within: GGGAGUUCUACAGUCCGACGAUC … CAACAGAGGAUUGAGCAUCA
# Construct (chain): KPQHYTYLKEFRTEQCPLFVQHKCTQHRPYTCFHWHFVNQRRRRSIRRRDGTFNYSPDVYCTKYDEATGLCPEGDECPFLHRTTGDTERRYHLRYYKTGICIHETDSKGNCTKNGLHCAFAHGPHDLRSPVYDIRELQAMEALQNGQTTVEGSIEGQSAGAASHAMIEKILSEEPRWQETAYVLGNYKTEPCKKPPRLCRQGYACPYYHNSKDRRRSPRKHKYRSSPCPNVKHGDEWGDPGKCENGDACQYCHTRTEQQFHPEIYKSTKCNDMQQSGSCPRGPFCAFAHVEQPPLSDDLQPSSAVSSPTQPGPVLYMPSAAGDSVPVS
Sequence,bound/input enrichment
UAGAUGGAAGAUUGAAAUUAGUCUUUACUUCCCCUUCUUACUAUGAUGAUGUCCACUUUUAAAUGUUGCUAAAAGAGAACAAUUUCAACUAAUCUUGACAUUUUCCUGACUAACUAGACA,1.38 ratio
UAUGCCUUCACCAGCUAUGGCAUUAGCCCACAGGCCAAGAUAACUUAUAAUAUCAAAAUGAAUAGAAGAAAAUGUGUUCACUGGAAACUGGCUGUUGAGCCCCUCCAAUGGGAGCUGAGG,5.43 ratio
GCUCGGAAUCGGCACUGUCUUGUCAACAUGGAAACAUCGUGCUCUUUUGAUUCUUCCAUCUGUAGUGGAGAAGGGGAUGAUAGUUUAAGGAUAGGUGGACAAGUUCAUGCUGUCCAGGCU,0.225 ratio
GAUGAAUUGAUGACCCUGGCUCAUAAGCACAUUGUCAAGACUGUGGAUUUCACACAGGAUAGCAAUUACCUGCUAACUGGGGGACAGGAUAAACUGCUGCGCAUAUAUGACUUGAACAAA,0.35 ratio
AUCAGUGUCGGACGCUAACACCACUUUCGCCCCUUCCCCGCCCCACACACCCUGUCUUCCCAUAGGAGCAUUACCCUCUGUUGUCCAUCUGCCAUCAGAUGUCCCCACUGAAGCAUGCAU,0.488 ratio
AGCGACCUCAUCCCCGCCUUCCAGAGCCUCCUCCGAGACUGCGAAGCUGAAGUCCGAGCAGCCGCUGCCCACAAAGUAAGAGAGCUUUGUGAGAACCUGCCCGCUGAAGGUAGAGAGACU,0.156 ratio
GUGAAACUGGUUCUUCCAAAGACCAAGUUUUCUAUGGUGUUACCUGAAGUCGAAGCAGCGUUAGCCGAGAUUCCUGGCGUCCGGAGUGUCGUGUUGUUUGGAGUAGAAACGCACGUGUGU,0.245 ratio
UCUCUUUUGGCUGUCCUGGGAGCCCCAGUCCCAUCCGACCUACAGGCCCAAAGACACCCAACCACAGGCCAGAUACUGGGUUACAAAGAGGUCUUGCUGGAGAACACAAAUCUCUCGGCU,0.0514 ratio

# Single results of other studies
Compound,target,test,setting,how to read,measurement,value
CCN(CC)C(=O)c1ccc(Nc2nc(OCC3CCCCC3)c3[nH]cnc3n2)cc1,"RAC-gamma serine/threonine-protein kinase (AKT3, Homo sapiens, UniProt Q9Y243)","enzyme activity, inhibitor",0.5 µM,relative to: control,remaining activity,101%
